# Experimental data of several laboratories.
# Protocols differ between the studies behind these lines. Several values in a cell are separate wells, animals, samples, runs or records. Numbers after ± are the reported error.
Structure (SMILES),assay,test system,conditions,scale,quantity,value
CSCC[C@H](N)C(=O)N[C@@H](C)C(=O)N[C@@H](Cc1c[nH]c2ccccc12)C(=O)N[C@@H](Cc1c[nH]cn1)C(=O)N[C@@H](CC(=O)O)C(=O)N[C@@H](CC(=O)O)C(=O)N[C@@H](CCC(=O)O)C(=O)N[C@@H](CCC(=O)O)C(=O)N[C@@H](Cc1ccccc1)C(=O)N[C@@H](C)C(=O)N[C@@H](CCCNC(=N)N)C(=O)N[C@@H](CCCNC(=N)N)C(=O)N[C@@H](CCCNC(=N)N)C(=O)N[C@@H](CCCNC(=N)N)C(=O)NCCCCCC(=O)NCCCCC(NC(=O)CCCCCNC(=O)[C@H](CCCNC(=N)N)NC(=O)[C@H](CCCNC(=N)N)NC(=O)[C@H](CCCNC(=N)N)NC(=O)[C@H](CCCNC(=N)N)NC(=O)[C@H](C)NC(=O)[C@H](Cc1ccccc1)NC(=O)[C@H](CCC(=O)O)NC(=O)[C@H](CCC(=O)O)NC(=O)[C@H](CC(=O)O)NC(=O)[C@H](CC(=O)O)NC(=O)[C@H](Cc1c[nH]cn1)NC(=O)[C@H](Cc1c[nH]c2ccccc12)NC(=O)[C@H](C)NC(=O)[C@@H](N)CCSC)C(=O)NCCCCC(NC(=O)C(CCCCNC(=O)CCCCCNC(=O)[C@H](CCCNC(=N)N)NC(=O)[C@H](CCCNC(=N)N)NC(=O)[C@H](CCCNC(=N)N)NC(=O)[C@H](CCCNC(=N)N)NC(=O)[C@H](C)NC(=O)[C@H](Cc1ccccc1)NC(=O)[C@H](CCC(=O)O)NC(=O)[C@H](CCC(=O)O)NC(=O)[C@H](CC(=O)O)NC(=O)[C@H](CC(=O)O)NC(=O)[C@H](Cc1c[nH]cn1)NC(=O)[C@H](Cc1c[nH]c2ccccc12)NC(=O)[C@H](C)NC(=O)[C@@H](N)CCSC)NC(=O)CCCCCNC(=O)[C@H](CCCNC(=N)N)NC(=O)[C@H](CCCNC(=N)N)NC(=O)[C@H](CCCNC(=N)N)NC(=O)[C@H](CCCNC(=N)N)NC(=O)[C@H](C)NC(=O)[C@H](Cc1ccccc1)NC(=O)[C@H](CCC(=O)O)NC(=O)[C@H](CCC(=O)O)NC(=O)[C@H](CC(=O)O)NC(=O)[C@H](CC(=O)O)NC(=O)[C@H](Cc1c[nH]cn1)NC(=O)[C@H](Cc1c[nH]c2ccccc12)NC(=O)[C@H](C)NC(=O)[C@@H](N)CCSC)C(N)=O (some centres unmarked),,"C57BL/6 mouse female, uterus","dose not given, 3 h",relative to: total,tissue distribution,1.21% and 0.83% and 2.01%
CC[C@H](C)[C@H](NC(=O)[C@H](CCCCN)NC(=O)CNC(=O)[C@H](CC(C)C)NC(=O)[C@H](Cc1ccccc1)NC(=O)[C@H](CCCCN)NC(=O)[C@H](CO)NC(=O)[C@H](Cc1ccccc1)NC(=O)[C@H](Cc1c[nH]c2ccccc12)NC(=O)[C@H](CCC(N)=O)NC(=O)[C@@H](NC(=O)[C@H](Cc1ccccc1)NC(=O)CCCCCNC(=O)CN1CCN(CC(=O)O)CCN(CC(=O)O)CCN(CC(=O)O)CC1)C(C)C)C(=O)N[C@@H](CCC(=O)O)C(=O)N1CCC[C@H]1C(=O)N[C@@H](CC(=O)O)C(=O)N[C@H](C(=O)N[C@@H](CO)C(=O)N[C@@H](CCC(N)=O)C(=O)N[C@H](C(=O)N[C@@H](CCC(N)=O)C(=O)N[C@@H](CC(=O)O)C(=O)N1CCC[C@H]1C(=O)N[C@@H](CC(N)=O)C(=O)N[C@@H](CC(=O)O)C(=O)N[C@@H](CCC(N)=O)C(=O)N[C@@H](Cc1ccc(O)cc1)C(=O)N[C@@H](CCC(=O)O)C(=O)N1CCC[C@H]1C(=O)N[C@@H](Cc1ccccc1)C(=O)O)C(C)C)C(C)C [copper-64 labelled],,"C57BL/6 male mouse, tumour-naive, brain",2 h,,tissue uptake,0.32 ± 0.02 %ID/g
"O=C([O-])CN1CCCN2CCN(CCCN(CC(=O)NC(Cc3ccccc3)C(=O)NC(Cc3ccccc3)C(=O)NCCCC[C@H](NC(=O)CCCCCCC(=O)NCCCC[C@H](NC(=O)N[C@@H](CCC(=O)O)C(=O)O)C(=O)O)C(=O)O)CC2)CC1.[64Cu+2] (single isomer, unassigned)",,"mouse PC-3 PIP tumour, PSMA+ tumour",2 h,,tissue uptake,20.5 ± 2.9 %ID/g
CC[C@H](C)[C@H](NC(=O)[C@H](CCCNC(=N)N)NC(=O)[C@H](CCCCN)NC(=O)[C@H](Cc1ccc(O)cc1)NC(=O)[C@H](CC(=O)O)NC(=O)[C@H](C)NC(=O)CNC(=O)CCOCCOCCOCCNC(=O)CN1CCN(CC(=O)O)CCN(CC(=O)O)CCN(CC(=O)O)CC1)C(=O)N[C@H](C(=O)N[C@H](C(=O)N[C@@H](CCCCN)C(=O)N[C@H](C(=O)N[C@@H](CC(N)=O)C(N)=O)C(C)C)C(C)C)[C@@H](C)O [copper-64 labelled],,"C57BL/6J mouse male, B16-F10 tumour, small intestine","intravenous, 1.85 MBq, 100 min, 67Ga complex",,tissue uptake,2.7 ± 0.049 %ID/g
CSCC[C@H](N)C(=O)N[C@@H](C)C(=O)N[C@@H](CCCNC(=N)N)C(=O)N[C@@H](CCCNC(=N)N)C(=O)N[C@@H](CC(=O)O)C(=O)N[C@@H](CCCCN)C(=O)N[C@H](C(=O)N[C@@H](CC(=O)O)C(=O)N[C@@H](Cc1ccccc1)C(=O)N[C@@H](C)C(=O)N[C@@H](CCCNC(=N)N)C(=O)N[C@@H](CCCNC(=N)N)C(=O)N[C@@H](CCCNC(=N)N)C(=O)N[C@@H](CCCNC(=N)N)C(=O)NCCCCCC(=O)NCCCCC(NC(=O)CCCCCNC(=O)[C@H](CCCNC(=N)N)NC(=O)[C@H](CCCNC(=N)N)NC(=O)[C@H](CCCNC(=N)N)NC(=O)[C@H](CCCNC(=N)N)NC(=O)[C@H](C)NC(=O)[C@H](Cc1ccccc1)NC(=O)[C@H](CC(=O)O)NC(=O)[C@@H](NC(=O)[C@H](CCCCN)NC(=O)[C@H](CC(=O)O)NC(=O)[C@H](CCCNC(=N)N)NC(=O)[C@H](CCCNC(=N)N)NC(=O)[C@H](C)NC(=O)[C@@H](N)CCSC)[C@@H](C)O)C(=O)NCCCCC(NC(=O)C(CCCCNC(=O)CCCCCNC(=O)[C@H](CCCNC(=N)N)NC(=O)[C@H](CCCNC(=N)N)NC(=O)[C@H](CCCNC(=N)N)NC(=O)[C@H](CCCNC(=N)N)NC(=O)[C@H](C)NC(=O)[C@H](Cc1ccccc1)NC(=O)[C@H](CC(=O)O)NC(=O)[C@@H](NC(=O)[C@H](CCCCN)NC(=O)[C@H](CC(=O)O)NC(=O)[C@H](CCCNC(=N)N)NC(=O)[C@H](CCCNC(=N)N)NC(=O)[C@H](C)NC(=O)[C@@H](N)CCSC)[C@@H](C)O)NC(=O)CCCCCNC(=O)[C@H](CCCNC(=N)N)NC(=O)[C@H](CCCNC(=N)N)NC(=O)[C@H](CCCNC(=N)N)NC(=O)[C@H](CCCNC(=N)N)NC(=O)[C@H](C)NC(=O)[C@H](Cc1ccccc1)NC(=O)[C@H](CC(=O)O)NC(=O)[C@@H](NC(=O)[C@H](CCCCN)NC(=O)[C@H](CC(=O)O)NC(=O)[C@H](CCCNC(=N)N)NC(=O)[C@H](CCCNC(=N)N)NC(=O)[C@H](C)NC(=O)[C@@H](N)CCSC)[C@@H](C)O)C(N)=O)[C@@H](C)O (some centres unmarked),,"C57BL/6 mouse female, small intestine",6 h,relative to: total dose,tissue distribution,11.4%
CSCC[C@H](NC(=O)CNC(=O)[C@H](CCCCN)NC(=O)[C@H](CC(C)C)NC(=O)[C@@H]1CCCN1C(=O)[C@H](CO)NC(=O)[C@H](Cc1c[nH]cn1)NC(=O)[C@H](Cc1c[nH]c2ccccc12)NC(=O)[C@H](CCCNC(=N)N)NC(=O)[C@H](CC(C)C)NC(=O)[C@H](CCCNC(=N)N)NC(=O)[C@H](Cc1c[nH]c2ccccc12)NC(=O)[C@H](CS)NC(=O)CCCCCNC(=O)CN1CCN(CC(=O)O)CCN(CC(=O)O)CCN(CC(=O)O)CC1)C(=O)O [copper-64 labelled],,"mouse, male, B16-F10 tumour, tumour","intravenous, 1.85 MBq, 0.5 h",,tissue uptake,4.67 %ID/g
CN1Cc2cc(Cl)ccc2-n2c(nnc2C2CCN(c3cccc([18F])n3)CC2)C1,,"C57BL/6 mouse male, muscle","intravenous, 3.7 MBq, 60 min",,tissue uptake,1.87 ± 0.49 %ID/g
CC[C@H](C)[C@H](NC(=O)[C@H](CCCNC(=N)N)NC(=O)[C@H](CCCCN)NC(=O)[C@H](Cc1ccc(O)cc1)NC(=O)[C@H](CC(=O)O)NC(=O)[C@H](C)NC(=O)CNC(=O)CCOCCOCCOCCNC(=O)CN1CCN(CC(=O)O)CCN(CC(=O)O)CCN(CC(=O)O)CC1)C(=O)N[C@H](C(=O)N[C@@H](CC(C)C)C(=O)N[C@@H](CCCCN)C(=O)N[C@H](C(=O)N[C@@H](CC(N)=O)C(N)=O)C(C)C)[C@@H](C)O [copper-64 labelled],ex vivo gamma counting,"male C57BL/6J mouse, B16-F10 tumour, B16-F10 tumour","intravenous, 1.85 MBq, 20 min",,tissue uptake,4.47 ± 1.56 %ID/g

# Some of these lines once more:
Structure (SMILES),assay,test system,conditions,scale,quantity,value
CC[C@H](C)[C@H](NC(=O)[C@H](CCCCN)NC(=O)CNC(=O)[C@H](CC(C)C)NC(=O)[C@H](Cc1ccccc1)NC(=O)[C@H](CCCCN)NC(=O)[C@H](CO)NC(=O)[C@H](Cc1ccccc1)NC(=O)[C@H](Cc1c[nH]c2ccccc12)NC(=O)[C@H](CCC(N)=O)NC(=O)[C@@H](NC(=O)[C@H](Cc1ccccc1)NC(=O)CCCCCNC(=O)CN1CCN(CC(=O)O)CCN(CC(=O)O)CCN(CC(=O)O)CC1)C(C)C)C(=O)N[C@@H](CCC(=O)O)C(=O)N1CCC[C@H]1C(=O)N[C@@H](CC(=O)O)C(=O)N[C@H](C(=O)N[C@@H](CO)C(=O)N[C@@H](CCC(N)=O)C(=O)N[C@H](C(=O)N[C@@H](CCC(N)=O)C(=O)N[C@@H](CC(=O)O)C(=O)N1CCC[C@H]1C(=O)N[C@@H](CC(N)=O)C(=O)N[C@@H](CC(=O)O)C(=O)N[C@@H](CCC(N)=O)C(=O)N[C@@H](Cc1ccc(O)cc1)C(=O)N[C@@H](CCC(=O)O)C(=O)N1CCC[C@H]1C(=O)N[C@@H](Cc1ccccc1)C(=O)O)C(C)C)C(C)C [copper-64 labelled],,"C57BL/6 male mouse, tumour-naive, brain",2 h,,tissue uptake,0.32 ± 0.02 %ID/g
